Experimental data collected from several papers.
Organism: Enterococcus faecium

The MIC of `CCCCCCCCCCCCC[C@@H](O)Cc1cc(O)cc(O)c1` is reported as 16 µg/mL (microbial growth, broth dilution; drug-resistant strain).
`CNC(CC(C)C)C(=O)NC1C(=O)NC(CC(N)=O)C(=O)NC2C(=O)NC3C(=O)NC(C(=O)NC(C(=O)O)c4cc(O)cc(O)c4-c4cc3ccc4O)C(O)c3ccc(c(Cl)c3)Oc3cc2cc(c3OC2OC(CO)C(O)C(O)C2OC2CC(C)(NCc3ccc(-c4ccc(Cl)cc4)cc3)C(O)C(C)O2)Oc2ccc(cc2Cl)C1O` (stereo not drawn) has an MIC of 2.5 µg/mL (broth microdilution; ATCC BAA-2317 VanA).
`CCCCCCCCCCCCCC(=O)N[C@H](CCN)C(=O)N[C@H](C(=O)N[C@@H](CCN)C(=O)N[C@@H](CC(C)C)C(=O)N[C@@H](CCN)C(=O)N[C@H](Cc1ccccc1)C(=O)N[C@@H](CC(C)C)C(=O)N[C@@H](CCN)C(=O)N[C@H](Cc1ccc(O)cc1)C(=O)N[C@H](C(=O)N[C@@H](CC(=O)O)C(=O)O)C(C)C)[C@@H](C)O` gave an MIC of 2 µg/mL (broth microdilution; BNCC 186301).
For `CN(C)CCCNC(=O)[C@@H]1NC(=O)[C@@H]2Cc3ccc(cc3)Oc3cc4cc(c3O)-c3ccc5c(c[nH]c5c3)C[C@@H](NC(=O)C(NC(=O)CCCCCN)c3ccc(O)cc3)C(=O)N[C@H](c3ccc(O)cc3)C(=O)N[C@H]4C(=O)N[C@@H](C(=O)N2C)c2ccc(cc2)Oc2cc1ccc2O` (stereo partly drawn), the MIC was 1 to 2 µg/mL (WCC 0502, VRE-A).
The MIC of `Cc1cccc(-c2nc(Nc3ccncn3)c3c(C)csc3n2)n1` is reported as 8 µM (microbial growth, broth dilution; X7501).
`CN1C(=O)[C@@H]2NC(=O)[C@@H]3NC(=O)[C@@H](c4ccc(O)cc4)NC(=O)[C@H](NC(=O)C(NCc4cccc(C(F)(F)F)c4)c4ccc(O)cc4)Cc4c[nH]c5cc(ccc45)-c4cc3cc(c4O)Oc3ccc(cc3)C[C@H]1C(=O)N[C@@H](C(=O)O)c1ccc(O)c(c1)Oc1ccc2cc1` (stereo partly drawn) gave an MIC of 16 µg/mL (brain heart infusion medium).
`Cc1cc(/C=C2\Sc3ccccc3N2CCCN2CCCC2)c2ccccc2[n+]1C` gave an MIC of 32 µg/mL (microbial growth, broth dilution; ATCC700221; drug-resistant strain).
`CC[C@H](C)c1occ2c(=O)c(C(=O)O)c(O)cc-2c1C` has an MIC of 50 µM (microbial growth, broth dilution; ATCC35667).
For `CC[P+](CC)(CC)[Au-][S][C@@H]1O[C@H](COC(C)=O)[C@@H](OC(C)=O)[C@H](OC(C)=O)[C@H]1NC(C)=O`, the MIC was 0.09 µM (ATCC 700221).
`CC1=C[C@@]2(C)C(=C(C)[C@H]3[C@@H]4C[C@H](C)C[C@H](C)[C@H]4[C@H]4Oc5ccc(cc5)C[C@@H]5C(=O)NC(=O)[C@H]5C(=O)[C@@H]2[C@@H]43)[C@H]1C` gave an MIC of 12.5 µM (microbial growth, broth dilution; ATCC700221; drug-resistant strain).
`C=C(NC(=O)C(=C)NC(=O)c1csc(C2=NC3c4csc(n4)C4NC(=O)c5csc(n5)C(C(C)(O)C(C)O)NC(=O)C5CSC(=N5)C(=CC)NC(=O)C(C(C)O)NC(=O)c5csc(n5)C3(CC2)NC(=O)C(C)NC(=O)C(=C)NC(=O)C(C(C)C)NC2C=Cc3c(C(C)O)cc(nc3C2O)C(=O)OC4C)n1)C(N)=O` (stereo not drawn) gave an MIC of > 5 µg/mL (broth microdilution; ATCC 12952 VRE; 18 h, 37 °C).
The MIC of `CCCCCCCCCCCCCC(=O)N[C@@H]1CCNC(=O)[C@H](CC(=O)O)NC(=O)[C@H](C(C)C)NC(=O)[C@@H](Cc2ccc(O)cc2)NC(=O)[C@H](CCN)NC(=O)[C@H](CC(C)C)NC(=O)[C@@H](Cc2ccccc2)NC(=O)[C@H](CCN)NC(=O)[C@H](CC(C)C)NC(=O)[C@H](CCN)NC(=O)[C@H]([C@@H](C)O)NC1=O` is reported as 4 µg/mL (broth microdilution; BNCC 186301).
`Cc1ccc2nc(C(F)(F)F)c(C(=O)NCc3cccc(Cl)c3)n2c1` has an MIC of > 64 µM (microbial growth, broth dilution; X7501).
`CN1C(=O)[C@@H]2NC(=O)[C@@H]3NC(=O)[C@@H](c4ccc(O)cc4)NC(=O)[C@H](NC(=O)C(NCc4ccsc4)c4ccc(O)cc4)Cc4c[nH]c5cc(ccc45)-c4cc3cc(c4O)Oc3ccc(cc3)C[C@H]1C(=O)N[C@@H](C(=O)O)c1ccc(O)c(c1)Oc1ccc2cc1` (stereo partly drawn) has an MIC of 8 µg/mL (brain heart infusion medium).
`CCCCCC/C=C\CCCCCCC[C@@H](O)Cc1cc(O)cc(O)c1` gave an MIC of 8 µg/mL (microbial growth, broth dilution; drug-resistant strain).
`CNCCNC(=O)[C@@H]1NC(=O)[C@@H]2Cc3ccc(cc3)Oc3cc4cc(c3O)-c3ccc5c(c[nH]c5c3)C[C@@H](NC(=O)C(N)c3ccc(O)cc3)C(=O)N[C@H](c3ccc(O)cc3)C(=O)N[C@H]4C(=O)N[C@@H](C(=O)N2C)c2ccc(cc2)Oc2cc1ccc2O` (stereo partly drawn) has an MIC of 1 to 2 µg/mL (brain heart infusion medium).
The MIC of `C[C@H]1COc2c(N3CCN(C)CC3)c(F)cc3c(=O)c(C(=O)N[C@@H](CCCNC(=N)N)C(=O)N[C@@H](Cc4ccc(-c5ccccc5)cc4)C(=O)N[C@@H](CCCNC(=N)N)C(=O)N[C@@H](Cc4ccc(-c5ccccc5)cc4)C(=O)N[C@@H](CCCNC(=N)N)C(N)=O)cn1c23` is reported as 5 µM (broth microdilution; ATCC 2316; 18 h, 37 °C).
The MIC of `O=C(NC12CC3CC(CC(C3)C1)C2)c1cc2cc(Cl)ccc2[nH]1` is reported as > 64 µM (microbial growth, broth dilution; X7501).
The MIC of `CN1C(=O)[C@@H]2NC(=O)[C@@H]3NC(=O)[C@@H](c4ccc(O)cc4)NC(=O)[C@H](NC(=O)C(NCc4cc(O)cc(O)c4)c4ccc(O)cc4)Cc4c[nH]c5cc(ccc45)-c4cc3cc(c4O)Oc3ccc(cc3)C[C@H]1C(=O)N[C@@H](C(=O)O)c1ccc(O)c(c1)Oc1ccc2cc1` (stereo partly drawn) is reported as 16 µg/mL (brain heart infusion medium).
`Cc1cccc(-c2nc(Nc3ccncn3)c3sccc3n2)n1` has an MIC of 16 µM (microbial growth, broth dilution; X7501).
The MIC of `CN1C(=O)[C@@H]2NC(=O)[C@@H]3NC(=O)[C@@H](c4ccc(O)cc4)NC(=O)[C@H](NC(=O)C(N)c4ccc(O)cc4)Cc4c[nH]c5cc(ccc45)-c4cc3cc(c4O)Oc3ccc(cc3)C[C@H]1C(=O)N[C@@H](C(=O)O)c1ccc(O)c(c1)Oc1ccc2cc1` (stereo partly drawn) is reported as 4 to 8 µg/mL (WCC 0524, VRE-A).
`CCN(CC)CCCN1/C(=C/c2cc(C)[n+](C)c3ccccc23)Sc2ccccc21` gave an MIC of 16 µg/mL (microbial growth, broth dilution; ATCC700221).
`Cc1ccc2nc(C)c(C(=O)NCc3cccs3)n2c1` gave an MIC of > 64 µM (microbial growth, broth dilution; X7501).
`CN1C(=O)[C@@H]2NC(=O)[C@@H]3NC(=O)[C@@H](c4ccc(O)cc4)NC(=O)[C@H](NC(=O)C(NCc4cc(Cl)cc(Cl)c4Cl)c4ccc(O)cc4)Cc4c[nH]c5cc(ccc45)-c4cc3cc(c4O)Oc3ccc(cc3)C[C@H]1C(=O)N[C@@H](C(=O)O)c1ccc(O)c(c1)Oc1ccc2cc1` (stereo partly drawn) has an MIC of 16 µg/mL (brain heart infusion medium).

Excerpt of the above:
For `CN(C)CCCNC(=O)[C@@H]1NC(=O)[C@@H]2Cc3ccc(cc3)Oc3cc4cc(c3O)-c3ccc5c(c[nH]c5c3)C[C@@H](NC(=O)C(NC(=O)CCCCCN)c3ccc(O)cc3)C(=O)N[C@H](c3ccc(O)cc3)C(=O)N[C@H]4C(=O)N[C@@H](C(=O)N2C)c2ccc(cc2)Oc2cc1ccc2O` (stereo partly drawn), the MIC was 1 to 2 µg/mL (WCC 0502, VRE-A).
